Assay results from different studies.
Lines come from different studies, so protocols differ. ± gives the spread as reported.

SMILES = Clc1cc2c(cc1Cl)Oc1c(ccc(Cl)c1Cl)O2; test system = whole cow milk; conditions = 20 nM nominal; endpoint = dose fraction in skim milk; value = 7.32%
SMILES = COc1ccc(-c2c(-c3ccc(C#N)c(F)c3)nc(N3CCC(N)CC3)n(C)c2=O)cc1F; test = item: Thrombocytopenia; test system = neuroendocrine neoplasm patients; conditions = oral, 60 mg, grade 3 to 4, dose expansion; endpoint = treatment-related adverse event incidence; value = 38%
SMILES = CCc1ccc(CC/C=C/c2ccc3c(c2)C(=O)CC3)cc1; test system = Sprague-Dawley rat, female; conditions = oral, 30 mg/kg/day, 14 days; endpoint = Urea; value = 4.83 mM
SMILES = O=C(O)CCCOc1ccc(F)cc1-c1cc(-c2ccccc2C(F)(F)F)n(-c2ccccc2)n1; test system = Crl:CD(SD) rats, female, blood; conditions = iv, 25 µg/kg, 14 days; endpoint = haematocrit; value = 41.1%
SMILES = C[C@]1(O)C[C@@](N)(c2ccc(-c3nc4n(c3-c3ccccc3)COc3ccncc3-4)cc2)C1; test system = human, advanced or metastatic solid tumours; conditions = 28 mg intermittent, phase I dose escalation; endpoint = patients with serious AE; value = 33.3%
SMILES = Cn1cc(-c2nc(N[C@@H]3CCCC[C@@H]3N)c(F)c3c2C(=O)NC3)cn1; test = item: Hemoptysis; test system = patients with relapsed or refractory AML; conditions = oral, 80 mg twice daily; endpoint = hemorrhagic adverse events; value = 17%
SMILES = C[C@@H](NC(=O)N1C(=O)[C@H](Cc2ccnc(N)c2)[C@H]1C(=O)O)C1CCCCC1; test system = healthy Chinese adult volunteers; conditions = continuous intravenous infusion, dose not given, 5.0 days, all doses pooled; endpoint = subjects with AEs leading to death; value = 0%
SMILES = C=C(CN(C(=O)c1c(C(F)F)nn(C)c1F)C1CC1)c1ccc(Cl)cc1Cl; test = static acute toxicity test; test system = zebrafish (Brachydanio rerio); conditions = 1.20 mg a.i./L, 24 h; endpoint = mortality; value = 30%
SMILES = O=[N+]([O-])NC1=NCCN1Cc1ccc(Cl)nc1; test system = whole cow milk; conditions = 200 nM nominal; endpoint = dose fraction in skim milk; value = 96.3%
SMILES = CC(C)[C@@H]1NC(=O)CNC(=O)[C@H](CC(N)=O)NC(=O)[C@H](CCCNC(=N)N)NC(=O)[C@H](Cc2ccc(O)cc2)NC(=O)[C@H](C(C)C)NC(=O)[C@@H](NC(=O)[C@@H](NC(=O)[C@H](CC(N)=O)NC(=O)[C@H](Cc2c[nH]c3ccccc23)NC(=O)[C@H](C)NC(=O)[C@H](Cc2ccccc2)NC(=O)CN)C(C)C)CSSC[C@@H](C(=O)N[C@@H](Cc2c[nH]cn2)C(=O)N[C@@H](CCCNC(=N)N)C(=O)N[C@@H](CCCNC(=N)N)C(=O)N[C@@H](C)C(=O)N[C@@H](CC(N)=O)C(N)=O)NC(=O)[C@H](C(C)C)NC(=O)[C@H](CCCNC(=N)N)NC1=O; test = circular dichroism, item: Random-coil; test system = PBS; conditions = 80 µM, pH 7.4, added: LPS 1 µM; endpoint = secondary structure content; value = 33.2%
SMILES = CN[C@@H](C)C(=O)N[C@H]1CN(S(=O)(=O)c2cccc(S(=O)(=O)N3CC[C@H]4CC[C@@H](C(=O)NC(c5ccccc5)c5ccccc5)N4C(=O)[C@@H](NC(=O)[C@H](C)NC)C3)c2)CC[C@H]2CC[C@@H](C(=O)NC(c3ccccc3)c3ccccc3)N2C1=O; test system = patients with advanced solid tumours; conditions = 12 mg, phase I monotherapy; endpoint = treatment-related pruritus incidence; value = 0%
SMILES = CC(C)[C@@H]1CC[C@@H](C)C[C@@H]1O; test = acute oral toxicity OECD; test system = Swiss albino mice, serum; conditions = oral, 1000 mg/kg; endpoint = HDL cholesterol; value = 27.2 ± 2 mg/dL
SMILES = COc1ncccc1-c1cnn2ccc(N3CCN(C(=O)OC(C)C)CC3)nc12; test system = mouse, open field test, brain; conditions = oral, 30 mg/kg, 60 min; endpoint = drug concentration; value = 48 µM
SMILES = CN(C(=O)n1cnc(-c2ccc[n+]([O-])c2)c1)C1CCCCC1; test system = Wistar rat, pons; conditions = oral, 10 mg/kg, 1 h, single dose; endpoint = concentration; value = 372 ± 50.3 ng/g
SMILES = O=C(Nc1ccccc1)C1CCN(C(=O)Oc2cccnc2)CC1; test = adverse event reporting; test system = healthy women; conditions = oral, 60 mg, 7 days; endpoint = subjects with blurred vision; value = 0%
SMILES = CN1CCN(S(=O)(=O)c2cc([N+](=O)[O-])ccc2N(CCOS(C)(=O)=O)CCOS(C)(=O)=O)CC1; test system = naive NSG mice, plasma; conditions = intraperitoneal, 25 mg/kg; endpoint = apparent clearance CL/F; value = 7.48 (mg/kg)/(µmol/L)/h
SMILES = CO[C@H]1C[C@@H]2CC[C@@H](C)[C@@](O)(O2)C(=O)C(=O)N2CCCC[C@H]2C(=O)O[C@H]([C@H](C)C[C@@H]2CC[C@@H](OC(=O)NCCOCCOCCOCCOCCOCCOCCOCCOCCC(=O)N3CCc4cc(Cn5nc(-c6ccc7oc(N)nc7c6)c6c(N)ncnc65)ccc4C3)[C@H](OC)C2)C[C@@H](O)[C@H](C)/C=C(\C)[C@@H](O)[C@@H](OC)C(=O)[C@H](C)C[C@H](C)/C=C/C=C/C=C/1C; test system = patients with advanced solid tumours; conditions = intravenous, 6 mg weekly, any grade; endpoint = AE leading to discontinuation; value = 8.3%
SMILES = Cn1cncc1-c1c(F)cncc1NC(=O)c1c(N)nn2cc(F)cnc12; test system = human patients; conditions = oral, 80 mg once daily; endpoint = grade ≥3 neutrophil decrease incidence; value = 0%
SMILES = COc1cc(C(=O)NC2CCN(C)CC2)c(F)cc1Nc1ncc(C(F)(F)F)c(Oc2cccc3c2C(=O)N(C)C3)n1; test system = human patients, plasma; conditions = oral, 300 mg single dose, geometric mean; endpoint = mean residence time; value = 26.9 h
SMILES = C[C@]1(CO)Cc2ncn(-c3ccc(C#N)c(Cl)c3)c2C(=O)O1; test system = human; conditions = 3 mg multiple doses, fasted; endpoint = subjects with drug-related fatigue; value = 0%
SMILES = CN(C)C(=O)c1cc2cnc(Nc3ccc(N4CCNCC4)cn3)nc2n1C1CCCC1; test = item: Leukopenia, AESI; test system = human, HR+/HER2− advanced breast cancer; conditions = oral, dose not given, grade 3, CTCAE v4.03; endpoint = patients with adverse event; value = 15.5%
SMILES = CC(=O)c1c(C)c2cnc(Nc3ccc(C4CCN(CCS(C)(=O)=O)CC4)cn3)nc2n(C2CCCC2)c1=O; test system = human, dose-escalation trial, plasma; conditions = oral, 50 mg twice daily, day 1, single dose; endpoint = AUC(0-inf); value = 770 ng·h/mL
SMILES = COc1cc2c(Oc3ccc4[nH]c(C)cc4c3F)ccnc2cc1OCC1(N)CC1; test system = paediatric refractory sarcoma patients; conditions = 8 mg; endpoint = intestinal obstruction incidence; value = 0%
SMILES = C[C@@H]1OC(=O)NN=C1c1ccc(-c2ccc(F)cc2)c(C(F)(F)F)c1; test = phase I trial, item: Pneumonitis all grades; test system = human patients; conditions = 5 mg once daily; endpoint = patients with adverse event; value = 0%
